Results from different studies.
Each line is one published result; not all experiments were run side by side. Several values in a cell are separate wells, animals, samples, runs or records. Numbers after ± are the reported error.

SMILES | target or system | test | test system | conditions | how to read | measurement | result
N[C@@H](C[18F])C(=O)O | MIA PaCa-2 tumour model |  | host not given | 5 min |  | maximum cellular uptake | 1.6 ± 0.2 %ID/100 µg protein
CC[C@H](C)[C@@H]1NC(=O)[C@@H]2CCCN2C(=O)[C@H](CC(C)C)NC(=O)[C@H](CC(C)C)NC(=O)CNC(=O)[C@@H](NC(=O)[C@@H](NC(=O)[C@H](CC(=O)O)NC(=O)CNC(=O)[C@@H](NC(=O)[C@H](C)NC(=O)CNC(=O)[C@H](CCCCN)NC(=O)[C@H](CC(C)C)NC(=O)[C@H](CC(C)C)NC(=O)[C@H](CCCCN)NC(=O)CNC(=O)[C@@H](NC(=O)[C@@H](N)CC(C)C)C(C)C)C(C)C)C(C)C)CSSC[C@@H](C(=O)O)NC1=O |  | RNA-seq, measured: Csk mRNA | mouse traumatic brain injury, frontal cortex and hippocampus | dose not given | reference: TBI plus compound vs TBI | log2 fold change | -0.666
C[C@]12CC[C@H]3[C@@H](CC=C4CC(O)CC[C@@]43CO)[C@@H]1CCC2O (some centres unmarked) |  | measured: CD11b, PAI-1 | rat, GAN diet-induced MASH, white adipose tissue | dose not given | reference: GAN diet plus vehicle | inflammation marker level | decreased
Cc1[nH]c(/C=C2\C(=O)Nc3ccc(S(=O)(=O)N(C)c4cccc(Cl)c4)cc32)c(C)c1C(=O)N1CCN(C)CC1 | human coronavirus OC43 | virus-induced cell killing | MRC-5 | screen |  | maximum inhibition | 9.76%
OC(Cn1cncn1)(Cn1cncn1)c1ccc(F)cc1F | Saccharomyces cerevisiae | cell growth | Pdr5 deleted, empty vector | 2^-2.322 µg/mL |  | OD600 | 1.03 and 1 and 1.02
CCCCCc1cc(O)c2c(c1)OC(C)(C)[C@@H]1CCC(C)=C[C@@H]21 | human CATSPER2-/- sperm | fluorimetry |  | 10 µM |  | Ca2+ signal | inhibited
CCCCC1(CCCC)CN(c2ccccc2)c2cc(SC)c(OCC(=O)N[C@@H](C(=O)NCC(=O)O)c3ccccc3)cc2S(=O)(=O)C1 |  | measured: LDL cholesterol | human, serum | 15 mg once daily, day 2 |  | serum LDL-C | 99.2 mg/dL
CC(C)(C(=O)NCC(F)(F)C(F)(F)F)C(=O)N[C@@H]1C(=O)Nc2ccccc2-c2ccccc21 | human coronavirus OC43 | virus-induced cell killing | MRC-5 | maximum over 10 doses |  | maximum inhibition | 0%
C#CCN(C)[C@H](C)Cc1ccccc1 |  | HPLC-ECD | MPTP mouse model, striatum | 10 mg/kg |  | striatal DOPAC content | 0.265 ng/mg tissue and 0.257 ng/mg tissue and 0.214 ng/mg tissue and 0.263 ng/mg tissue and 0.372 ng/mg tissue and 0.256 ng/mg tissue and 0.198 ng/mg tissue
CC(C)[C@H](N)C(=O)N1CCC[C@H]1B(O)O |  | GP-AMC cleavage | HEK-293T cell lysate | 10 µM, together with: GP-AMC 500 µM |  | inhibition | inhibited
CC(C)NCCc1c[nH]c2cccc(O)c12.O=C(O)/C=C/C(=O)O |  |  | C57BL/6J mice | subcutaneous, 3 mg/kg | reference: pre-session baseline | body temperature change | 0 ± 0.1 °C
Cn1c(=O)ccc2ccc(F)c(CCNC[C@H]3CN(c4cnc5c(n4)NC(=O)CO5)C(=O)O3)c21 | Fusobacterium spp. |  |  |  |  | MIC50 | < 0.015 µg/mL
CN1CCN(S(=O)(=O)c2cc([N+](=O)[O-])ccc2N(CCOS(C)(=O)=O)CCOS(C)(=O)=O)CC1 |  |  | NSG mice, sample BE PDX | intraperitoneal, 25 mg/kg weekly x3 | reference: vehicle | EFS delay (T-C) | > 359 days
CCOC(=O)Nc1ccc(NCc2ccc(F)cc2)cc1N | THP-1 | pyroptotic LDH release |  | 2 µM, 40 min, together with: LPS then nigericin |  | inhibition | -16.9%
Cc1ccc(S(=O)(=O)/C=C/C#N)cc1 | human coronavirus OC43 | virus-induced cell killing | MRC-5 | screen |  | maximum inhibition | 2.96%
COc1cc(CCC[P+](c2ccccc2)(c2ccccc2)c2ccccc2)c(OC)c2c1OCO2.[I-] | KM12 | SRB |  |  |  | LC50 | -4.44 log M
CCCCNCCc1c[nH]c2cccc(O)c12.O=C(O)/C=C/C(=O)O |  |  | C57BL/6J mice | subcutaneous, 3 mg/kg | reference: pre-session baseline | body temperature change | -0.2 ± 0.1 °C
C[C@H]1O[C@@H](O[C@H]2CC[C@@]3(C)[C@@H](CC[C@]4(C)[C@@H]3C=C[C@]35OC[C@@]6(CCC(C)(C)C[C@H]63)[C@@H](O)C[C@]54C)[C@]2(C)CO)[C@H](O)[C@@H](O[C@@H]2O[C@H](CO)[C@@H](O)[C@H](O)[C@H]2O)[C@H]1O |  | measured: PGC-1α | ethanol-fed mice, hepatic SIRT1 knockdown (AAV8-TBG-SIRT1), liver | dose not given, high dose, unit not given | reference: AAV8-TBG-Null ethanol group | mRNA level | 0.51 and 0.89 and 0.95 and 0.74

SMILES | target or system | test | test system | conditions | how to read | measurement | result
C=C1/C(=C\C=C2/CCC[C@]3(C)[C@@H]([C@H](C)/C=C/[C@H](C)C(C)C)CC[C@@H]23)C[C@@H](O)C[C@@H]1O | human coronavirus OC43 | virus-induced cell killing | MRC-5 | maximum over 10 doses |  | maximum inhibition | 0%
C=CCNCCc1c[nH]c2cccc(O)c12.C=CCNCCc1c[nH]c2cccc(O)c12.O=C(O)/C=C/C(=O)O |  |  | C57BL/6J mice | subcutaneous, 1 mg/kg | reference: pre-session baseline | body temperature change | 0.1 ± 0.2 °C
COc1cc(CCNC(C)c2ccccc2O)c(OC)cc1C#N.Cl (centres unmarked) | 5-HT2C V102L mutant, human | Gq dissociation, BRET |  |  | reference: wild-type 5-HT2C | fold gain in potency | 15 fold
CCNCCc1c[nH]c2cccc(O)c12.CCNCCc1c[nH]c2cccc(O)c12.O=C(O)CCC(=O)O |  |  | C57BL/6J mice | subcutaneous, 0.03 mg/kg | reference: pre-session | body temperature change | -0.5 ± 0.3 °C
O=C(CCCCCCC(=O)Nc1ccc([C@H]2O[C@@H](CSc3nc(-c4ccccc4)c(-c4ccccc4)o3)C[C@@H](c3ccc(CO)cc3)O2)cc1)NO | human coronavirus OC43 | virus-induced cell killing | MRC-5 | screen |  | maximum inhibition | 4.17%
CC(C)(C)NCCc1c[nH]c2cccc(O)c12.CC(C)(C)NCCc1c[nH]c2cccc(O)c12.O=C(O)/C=C/C(=O)O |  |  | C57BL/6J mice | subcutaneous, 1 mg/kg | reference: pre-session baseline | body temperature change | 0.1 ± 0.2 °C
c1ccc(Cn2nnc3c(Sc4nc5ccccc5o4)ncnc32)cc1 | human coronavirus OC43 | virus-induced cell killing | MRC-5 | screen |  | maximum inhibition | 13.5%
COc1ccc(CN2CCNCC2)c(OC)c1OC | Nedd8-cullin1 interaction | neddylation, AlphaScreen |  | 100 µM |  | inhibition | 26.3%
CS(=O)(=O)Nc1ncn(-c2cc(F)c(COc3ccc(OS(=O)(=O)F)cc3)c(F)c2)n1 | Mycobacterium tuberculosis | intracellular growth | THP-1-derived macrophages, H37Rv |  |  | EC90 | 110 nM
Cc1cn([C@H]2O[C@@H](CO[P@@](=O)(N[C@@H](C)C(=O)OC(C)C)Oc3ccccc3)[C@H](O)[C@H]2F)c(=O)[nH]c1=O |  |  | adults with chronic hepatitis B | 25 mg, day 28 | reference: baseline | change in HBsAg | -0.07 log10 IU/mL
O=C1N[C@@H]2[C@@H](O)[C@@H](O)[C@H](O)[C@@H](CO)N2C1=O | human coronavirus OC43 | virus-induced cell killing | MRC-5 | screen |  | maximum inhibition | 15.8%
Nc1ncnc2c1ncn2[C@@H]1O[C@@H]2COP(=O)(O)O[C@H]3[C@@H](O)[C@H](n4cnc5c(=O)[nH]cnc54)O[C@@H]3COP(=O)(O)O[C@H]2[C@H]1O | Zika virus | downregulated Reactome pathway, RNA sequencing, measured: Extracellular matrix organization (R-HSA-1474244) | HFF-1 |  | reference: ZIKV-infected untreated | fold enrichment | 8.1
COc1ccc(-c2ccc3c(N4CCOCC4)nc(N4C[C@@H](C)O[C@@H](C)C4)nc3n2)cc1CO | human coronavirus OC43 | virus-induced cell killing | MRC-5 | maximum over 10 doses |  | maximum inhibition | 0%
CCCNCCc1c[nH]c2cccc(O)c12.CCCNCCc1c[nH]c2cccc(O)c12.O=C(O)/C=C/C(=O)O |  |  | C57BL/6J mice | subcutaneous, 3 mg/kg | reference: pre-session baseline | body temperature change | -0.1 ± 0.2 °C
COc1ccc(CCC2CCCC(CCc3ccc(OC)cc3)N2C[C@@H](O)CO)cc1.Cl (stereo in doubt) |  | methamphetamine-evoked dopamine release | rat striatal slices | 30 µM, together with: methamphetamine 5 µM |  | time of significant inhibition | 50 to 60 min
O=C(O)/C=C/C(=O)O.Oc1cccc2[nH]cc(CCNC3CCCCC3)c12 |  |  | C57BL/6J mice | subcutaneous, 3 mg/kg | reference: pre-session baseline | body temperature change | 0.2 ± 0.1 °C
COc1c(CCC[P+](c2ccccc2)(c2ccccc2)c2ccccc2)cc2c(c1OC)OCO2.[I-] | SW-620 | SRB |  |  |  | GI50 | -5.71 log M

For quick reference, copied from above:
SMILES | target or system | test | test system | conditions | how to read | measurement | result
c1ccc(Cn2nnc3c(Sc4nc5ccccc5o4)ncnc32)cc1 | human coronavirus OC43 | virus-induced cell killing | MRC-5 | screen |  | maximum inhibition | 13.5%
COc1ccc(CN2CCNCC2)c(OC)c1OC | Nedd8-cullin1 interaction | neddylation, AlphaScreen |  | 100 µM |  | inhibition | 26.3%
CS(=O)(=O)Nc1ncn(-c2cc(F)c(COc3ccc(OS(=O)(=O)F)cc3)c(F)c2)n1 | Mycobacterium tuberculosis | intracellular growth | THP-1-derived macrophages, H37Rv |  |  | EC90 | 110 nM
Cc1cn([C@H]2O[C@@H](CO[P@@](=O)(N[C@@H](C)C(=O)OC(C)C)Oc3ccccc3)[C@H](O)[C@H]2F)c(=O)[nH]c1=O |  |  | adults with chronic hepatitis B | 25 mg, day 28 | reference: baseline | change in HBsAg | -0.07 log10 IU/mL
O=C1N[C@@H]2[C@@H](O)[C@@H](O)[C@H](O)[C@@H](CO)N2C1=O | human coronavirus OC43 | virus-induced cell killing | MRC-5 | screen |  | maximum inhibition | 15.8%
